# Experimental data gathered from unrelated publications.
# Each numbered part is a random draw from the data of one study; scales do not carry over between parts.

# Sample 1 — technique: protein-binding microarray; form: double-stranded DNA, one strand shown; matrix: in vitro; concentration: 2540 nM top; notes: 60-bp whole probe; together with: salmon DNA 0.4 mg/ml; baseline: random background probes; direction: higher = stronger binding; all sequences stand within: GCCTAGCAC … GTCTTGATTCGCTTGACGCTGCTG
# Target: Interferon regulatory factor 3, full length, phosphomimetic (IRF3, Homo sapiens, UniProt Q14653, residues 1-427, S386D/S396D/S398D/S402D/T404D/S405D)
# Chain of UniProt Q14653 (whole entry, unmodified, looked up): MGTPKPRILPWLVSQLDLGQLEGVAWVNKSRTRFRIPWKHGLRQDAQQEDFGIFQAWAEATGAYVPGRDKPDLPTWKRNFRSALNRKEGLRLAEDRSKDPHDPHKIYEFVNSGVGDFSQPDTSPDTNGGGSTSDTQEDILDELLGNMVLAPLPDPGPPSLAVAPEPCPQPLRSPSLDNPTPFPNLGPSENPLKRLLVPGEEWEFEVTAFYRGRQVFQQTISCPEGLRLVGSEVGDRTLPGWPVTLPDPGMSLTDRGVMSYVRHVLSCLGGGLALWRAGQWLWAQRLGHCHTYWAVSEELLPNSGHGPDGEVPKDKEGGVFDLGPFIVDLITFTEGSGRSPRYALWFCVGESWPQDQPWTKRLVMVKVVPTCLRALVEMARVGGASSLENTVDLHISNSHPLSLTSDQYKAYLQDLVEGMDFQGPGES
Oligonucleotide,fitted relative affinity [z-score]
GACGGACTGGGGTTTCGGAACGTGCTA,2.69
TTAGGCCTGGACTTTCGGTTAGTGCTA,0.493
GACGCACTGAGTCTCGAGACGTGCTAG,-0.344
TCAAATCTCAGCCTCCGACTGTGCTAG,0.002
TTAGGTATCGGTTTCTGTTAGTGCTAG,6.97
GACGGACTGGGACTGGGGTCGTGCTAG,-0.847
GACGGTATCGGTTTCCGGACGTGCTAG,6.94
TTAGGACTGCGACTGGGTTAGTGCTAG,-0.871
TGTGGTCTGTTTCTGATATGGTGCTAG,2.57
GGGCCCATCATTCCGACCCTGTGCTAG,-0.138
TTAGATATCGTGTTTCGATTAGTGCTA,1.63
TTAGGTTTCGGTCTCGGTAAGTGCTAG,8.87
GACGATTTCAGGTTTCGAGACGTGCTA,2.44
TCACCTTTACTTTCTTTACTGTGCTAG,2.58
TACGATATCAGTCTCGAGACGTGCTAG,1.04
TGAGCATACCATATCAGAAAGTGCTAG,0.745
GACGGTATCCTTATCCGGACGTGCTAG,5.69
GACGGACAGGGTATCGGGACGTGCTAG,-0.235
TTAGATCACAGTATCGATTAGTGCTAG,1.04

# Sample 2 — technique: RNA Bind-n-Seq; form: RNA; matrix: in vitro; concentration: 365 nM; baseline: no-protein control; direction: higher = stronger binding
# Target: RNA binding protein fox-1 homolog 2, RRM domain, GST-SBP tag (RBFOX2, Homo sapiens, UniProt O43251-10, residues 100-194)
# Notes: natural RNA segment, single round, ends assumed
# All sequences stand within: GGGAGUUCUACAGUCCGACGAUC … UGGAAUUCUCGGGUGCCAA
# Target sequence (chain): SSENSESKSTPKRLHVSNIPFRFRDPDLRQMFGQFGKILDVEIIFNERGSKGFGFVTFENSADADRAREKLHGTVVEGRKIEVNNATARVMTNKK
Oligonucleotide,RBNS enrichment (R)
UCUAGUUAGUACUGGCAGGACAUACCCUUAACCAAAACAUGGAAUUUGGCACCUUUUCCUCACUUGUAGCUUCCCUAUGAUAGCUGAGCUAACCCUAAGGUUUCCUAGCU,0.283
GGAGCCGACCUGGGGCUGCACAUCCCUGCCCAUCCCCAGAAAGACUGUUCCUGUCAGGAUUUGUUUCCCUCUGCUGUGGCGGUGACUGCUUCUGGACCAGAACAGCUCCA,0.216
UUGAAGCUUGCUCUCCCUAGAUGGGUGGUCUGCUCUCGGUCCUUCUCUGCUCUCUAUAAAAUGGUGCUGUGCGGGAGGGAGGGGGGAAGUUUUUCAAUAUAUGAACUUUU,0.63
CUUGUUUCCUAACCGUGCAGUGGUAGGUAUUAGUACACUGGGCACUUCCCCAGGGAUCUGGGGAAGACCAGAGCUUGCAGCUCUGCCUGCUUUGAUCCAUAUUUCUCACA,0.519
CCUACCCUUCCUGCACUCCCUUCCCCAGUUCUGCUCAGCUCAGCUGUGGGAGGUAAACUUAAGCUGAAGGUGGCGGACUCUACUGUCGCAGGCCACAGCAGACAGGGUGG,0.236
CCAUGCCCUCCAAAUGCUAGAGACCUGGGCCCUGAACCCUGUAGACAGAUGCCCUCAGAAUUGGGGCAUGGGAGGGGGGCUGGGGGACCCCAUGAUUCAGCCACGGACUC,1.08
UCUUGAGUUGCUGAUAGGAGAUGUGAGUUAUGCCCAGAGAUGUCUUAUCGUGAGGAAAAAGAAACUUCCUUUUGUUCACAUUUAGGACUCUCAGUGCCAUAUGAAGUAGC,0.539
GGAGCCCCCUCUGCCGGUCGGGCAGCCAGCAGAGGGGGAGUAGCCAAGCUGCUUGUCCUGGGCCUGCCCCUGUGUAUUCACCACCAAUAAAUCAGACCAUGAAACCAGUG,0.322

# Sample 3 — technique: universal PBM; form: double-stranded DNA, one strand shown; matrix: in vitro; concentration: not given; direction: higher = stronger binding
# Target: Sal-like protein 4, full length isoform B (SALL4, Homo sapiens, UniProt Q9UJQ4-2, residues 1-616)
# Notes: 8-mer, flanks averaged, mean of replicates
Oligonucleotide,E-score
AGGGTAAA,0.117
TCCAAAGA,-0.0114
TGGGCTAA,-0.0409
ACAGTATC,0.196
ATCGATGG,0.0699
CTCCCTGC,-0.246
ATTTAACA,0.25
CGTTTGTA,0.112
GCCCGGGA,-0.393
GCGATCTA,-0.0671
AAGCCATA,0.127
CTCTCGCC,-0.231
AGGGCTCC,-0.322
TCCAGACA,-0.155
ATGTGAGA,0.21
CCCTGTGA,-0.158
CTTCCTGC,-0.163
AAAATTGT,0.391
CACCTAGC,-0.191
TACATGTA,0.243
CACGTGTC,-0.0533
ACGTCGGA,-0.123
GGCTCGGA,-0.25
ACCCTTAC,0.0255
GAATCTTA,0.134

# Sample 4 — technique: protein binding microarray; form: double-stranded DNA, one strand shown; matrix: in vitro; concentration: not given; baseline: not given; direction: higher = stronger binding
# Target: Histone acetyltransferase KAT6A, winged helix 1, GST fusion (KAT6A, Homo sapiens, UniProt Q92794, residues 1-85)
# Notes: 8-mer, flanks averaged, mean of 2 arrays, mostly near background
# Target sequence (chain): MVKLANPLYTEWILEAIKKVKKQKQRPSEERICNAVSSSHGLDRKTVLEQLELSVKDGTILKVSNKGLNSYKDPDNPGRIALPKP
Oligonucleotide,E-score
CACTCGAC,-0.0322
CGCGGCAG,0.413
CGACGCCC,0.328
GAGAGGTA,-0.13
CGCCACCC,0.225
CAGAAATA,-0.152
CCGACAAC,0.0343
ACTGCCTG,-0.113
ACTATACC,-0.0155
ACTCCGTA,0.246
CTCCTCAC,-0.0548
AAGGAAAG,-0.0796
ACCCGAAC,0.0412
ATAACAGC,0.0207
GACGCCAC,0.177
GCCCTCCA,-0.0115
ATTAAATA,-0.104
ACTTCAAA,-0.319
CGCATATA,0.173
GTGGCGTA,0.0799
AGGGTTCG,-0.0906
AGTCGATA,-0.215

# Repeated from above (sample 3):
Oligonucleotide,E-score
ACGTCGGA,-0.123
ATGTGAGA,0.21
CTCCCTGC,-0.246
CACCTAGC,-0.191
ATTTAACA,0.25
ACCCTTAC,0.0255
CCCTGTGA,-0.158
